Measured values of several laboratories.
A part holds a random share of what one study measured. Substitutions count along the parent as printed.

Set 1
Target: ABI1, truncated, D143A, DHFR fusion (Arabidopsis thaliana)
Method: DHFR PCA, deep sequencing
Sample: yeast
Setting: methotrexate growth selection, single substitutions
Added: (+)-ABA 1.4 µM
Relative to: wild-type fitted maximum
Reading: higher = stronger binding
Endpoint: relative binding score
Starting sequence: PYL1, truncated, DHFR fusion (Arabidopsis thaliana); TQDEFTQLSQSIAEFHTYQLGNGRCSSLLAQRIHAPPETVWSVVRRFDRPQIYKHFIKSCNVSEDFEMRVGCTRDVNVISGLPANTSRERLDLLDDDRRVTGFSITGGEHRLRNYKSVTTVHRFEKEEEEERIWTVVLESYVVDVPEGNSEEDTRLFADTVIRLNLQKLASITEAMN
L20W: 30.3%
T106E: 35.3%
S59Q: 27.8%
D144E: 12%
R32K: 58.6%
G102P: 6.12%
E131D: 77.1%
P83D: 3.75%
N165M: 15%
D3M: 26.9%
I162V: 73.1%
E67T: 53%
S80I: -0.331%
I105R: -0.638%
T173W: -5.82%
E131T: 73%
L138D: 2.05%
V78S: 1.62%
F103S: -2.55%
Y115R: -2.65%
F15H: 46%
F103W: -1.05%
F5S: 32.3%

Set 2
Target: CCND3, cyclin fold, Cln2 fusion (human)
Method: yeast growth competition, sequencing
Sample: yeast
Setting: weak parent motif
Relative to: not given
Reading: higher = stronger binding
Endpoint: normalised enrichment score
Starting sequence: MICAL3 docking peptide (human); LQLRRQLSFSEDS; partner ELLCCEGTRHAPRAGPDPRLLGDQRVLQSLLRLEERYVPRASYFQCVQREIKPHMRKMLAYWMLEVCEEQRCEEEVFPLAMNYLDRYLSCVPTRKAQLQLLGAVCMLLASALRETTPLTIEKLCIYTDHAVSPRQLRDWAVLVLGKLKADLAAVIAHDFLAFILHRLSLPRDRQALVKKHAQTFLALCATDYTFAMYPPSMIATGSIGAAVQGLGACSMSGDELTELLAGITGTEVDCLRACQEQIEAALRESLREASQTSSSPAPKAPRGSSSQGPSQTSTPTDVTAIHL
Q6Y: 0.177
F9E: -0.0464
L3Y: -0.0118
S10F: 0.275
E11Y: 0.18
E11V: 0.0574
E11H: -0.0151
S10V: -0.135
D12P: 0.108
E11Q: -0.0281
S10I: -0.139
Q6V: 0.213
F9G: -0.0995
S8Y: 0.308
D12F: -0.0275
R4E: -0.199
S8C: 0.178
L3R: 0.52
F9D: -0.0276
L7V: 0.395
F9V: -0.0749
S10P: 0.167
S10H: 0.0044
L7T: 0.107
R4C: -0.209

Set 3
Target: ATF1, bZIP domain (human)
Method: DHFR protein complementation
Sample: yeast
Setting: single substitutions, most at no-binding floor
Relative to: wild-type JUN-FOS pair
Reading: higher = stronger binding
Endpoint: binding fitness
Starting sequence: JUN, bZIP domain (human); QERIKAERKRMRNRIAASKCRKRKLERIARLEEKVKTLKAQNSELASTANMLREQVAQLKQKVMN; partner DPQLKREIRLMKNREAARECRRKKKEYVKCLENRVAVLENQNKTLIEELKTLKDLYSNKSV
K36D: -1.32 natural log
L59G: -1.38 natural log
Q55F: -1.45 natural log
R53I: -1.55 natural log
A57M: -1.58 natural log
M51E: -1.51 natural log
L31E: -1.54 natural log
E44L: -1.51 natural log
K34W: -1.43 natural log
E33D: -1.5 natural log
Q41H: -1.47 natural log
Q55T: -1.51 natural log
S47M: -1.48 natural log
Q55R: -1.46 natural log
A29I: -1.38 natural log
M51H: -1.54 natural log
Q41L: -1.58 natural log
A49H: -1.5 natural log
A57S: -1.37 natural log
K36F: -1.56 natural log
S47K: -1.35 natural log
S43V: -1.47 natural log
L52F: -1.5 natural log
Q41F: -1.46 natural log
E44T: -1.54 natural log

Set 4
Target: RING finger protein unkempt homolog, zinc fingers 1-6, GST-SBP tag (UNK, Homo sapiens, UniProt Q9C0B0, residues 30-357)
Method: RNA Bind-n-Seq
Molecule type: RNA
Sample: in vitro
Tested at: not given
Setting: RNA with constant flanks, human and mouse sites, ends assumed
Relative to: input RNA pool
Reading: higher = stronger binding
Endpoint: bound/input enrichment
Target sequence (chain): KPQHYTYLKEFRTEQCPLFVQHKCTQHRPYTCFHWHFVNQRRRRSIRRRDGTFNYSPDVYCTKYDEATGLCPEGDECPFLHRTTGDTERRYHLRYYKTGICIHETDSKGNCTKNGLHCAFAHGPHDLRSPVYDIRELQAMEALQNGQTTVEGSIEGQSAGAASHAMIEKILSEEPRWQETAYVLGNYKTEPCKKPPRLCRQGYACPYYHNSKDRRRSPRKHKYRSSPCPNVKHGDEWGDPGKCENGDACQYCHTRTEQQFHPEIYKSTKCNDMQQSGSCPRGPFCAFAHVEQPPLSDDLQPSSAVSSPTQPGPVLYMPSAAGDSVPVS
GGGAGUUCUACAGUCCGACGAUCUGUGGGAUAUCACAUCAGUGGUUCCAAGAUUUCAAAGUGGUGAAAUGAAAAUGGAGCAGCUAGUAUGUUUUAUUAUUUUAUGGGUCUUGAGUGCAUUUGAAGGUGUCCUUCAGUUCCCACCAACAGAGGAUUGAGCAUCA: 0.38 ratio
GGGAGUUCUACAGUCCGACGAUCUUGAAAUUGUUCUUUUUAUUUUCAGGGAUACCGUUUAAUUUAAUUAUAUGAUUUGUCUGCACUCAGUUUAUUCCCUACUCAAAUCUCAGCCCCAUGUUGUUCUUUGUUAUUGUCAGAACCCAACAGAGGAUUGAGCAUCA: 0.332 ratio
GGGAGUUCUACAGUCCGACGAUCGACAUGCACGUGGCCGACAUGCUUGUUAAGGUGAAUGCCCUUAUCAAGGAGCGUGAAGGCUAUGCCCCUGGCACAGAAUUCCACCGAUGCAAGGAGAUGUCUGAGUACUGUAGUACUCUGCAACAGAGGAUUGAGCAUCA: 0.101 ratio
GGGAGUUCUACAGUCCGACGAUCGUUUACGAGGUCACCUCUACCAAGUACACUCGUGAUAUCUAUAAAGAGCUCCUCAUCUCCUUAGUGGCCUCACUCUUCAUGGGCUUUGGAGUCCUCUUCCUGCUGCUCUGGGUUGGCAUCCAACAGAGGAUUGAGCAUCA: 0.237 ratio
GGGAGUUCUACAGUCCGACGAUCUCCCCUCAAGCACCAACACACUUUCUGGUGAUACCCAAGAAGCAUAUAUCCCAGAUUUCUGUAGCAGAUGAUGAUGAUGAAAGUCUUCUAGGACAUUUAAUGAUUGUUGGCAAGAAAUGUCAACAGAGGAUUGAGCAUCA: 0.286 ratio
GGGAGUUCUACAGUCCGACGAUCGAGCCAUUCUAAAAGUGACCAGCAGGAGGGAUCUAGUAGUGAAUAAUAUCUUAAUAGCAAUUUUAGGAGAAAAUGACUCUUUCGUCCAGAAGAGCUCUGCAGAACCAGGGCUCCCGUUUACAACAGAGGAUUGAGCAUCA: 5.22 ratio
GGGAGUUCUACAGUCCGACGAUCCAGUGGCCCCAUGGAGAGCUUUCUCUGUCUGGGAUUGAACUGAGAUCCUGAGGUUUUCUUUUAGGAAACUAAAGUAAACUUGCCAUUACUAAAUUUGUAAAGUUGAGAUUCACUCCUUAACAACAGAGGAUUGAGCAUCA: 0.0696 ratio
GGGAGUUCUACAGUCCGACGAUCACUAUAUGAGUAUGUGUACUGCAUGUUUACAUAAAACAGUUUAAUUUUGAAGGAUUAUUUUAAAAACUAUGUUUAUAUAUAAUACCUAACAAGCUGUAAAUAUUGUAUAUUAUUGAUUUUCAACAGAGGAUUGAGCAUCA: 0.485 ratio
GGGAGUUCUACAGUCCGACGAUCGGAGGUCAGGUUCCUGACACAAACUACAUAUUUAUGGGUGAUUUUGUAGACAGAGGUUACUAUAGUUUGGAGACCUUCACUUAUCUUCUUGCACUAAAGGCUAAGUGGCCUGACCGUAUUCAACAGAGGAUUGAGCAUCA: 0.423 ratio
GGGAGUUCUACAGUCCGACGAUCAGAAAUGGGUCGCUCCAAUUCUAGAUCACAUUCUUCAAGGUCAAAGUCUAGAUCACAGUCUAGUUCUCGAUCAAGAUCAAGAUCUCAUUCUAGAAAGAAGCGAUACAGUUCUAGGUCUCGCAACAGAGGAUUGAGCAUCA: 0.143 ratio
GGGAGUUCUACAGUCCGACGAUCGACACGCUGCUGGGUGCCAUUAUUAUCCAUGAAGUUUAUGAAGAAGGAGCAGCAUGUAAAGAUGGAAGACUCUGGGCUGGAGAUCAGAUCUUAGAGGUGAAUGGAAUUGACUUGAGAAAGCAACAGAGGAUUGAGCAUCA: 1.07 ratio
